Published values from different studies.
Protocols differ between the studies behind these lines.

`CC(=O)N[C@@H](CCCCN)C(=O)N[C@@H](CCCCN)C(=O)N[C@@H](CCCNC(=N)N)C(=O)N[C@@H](Cc1ccc(O)cc1)C(=O)N[C@@H](CO)C(=O)N[C@@H](CCCNC(=N)N)C(=O)N[C@@]1(C)CCCC=CCCC[C@@](C)(C(=O)N[C@@H](Cc2ccccc2)C(N)=O)NC(=O)[C@H](CC(C)C)NC(=O)[C@H](CC(C)C)NC(=O)[C@H](C)NC1=O` gave a helicity of 80% (circular dichroism; solution).
With `CC[C@H](C)[C@H](NC(=O)[C@H](Cc1ccccc1)NC(=O)[C@H](CC(=O)O)NC(=O)[C@H](CCCCN)NC(=O)[C@H](Cc1ccccc1)NC(=O)[C@H](Cc1ccccc1)NC(=O)[C@H](CCCCN)NC(=O)[C@H](CCCN)NC(=O)[C@H](CC(C)C)NC(=O)[C@H](CCCNC(=N)N)NC(=O)[C@H](CCSC)NC(=O)[C@H](C)N)C(=O)N[C@@H](CC(C)C)C(=O)N[C@@H](CCC(N)=O)C(=O)N[C@@H](CCCNC(=N)N)C(=O)N[C@@H](CCCCN)C(=O)N[C@@H](CCCCN)C(=O)O` the helicity was 24.9% (circular dichroism; 20% TFE in PBS; 200 µM, pH 7.4, 25 °C).
`CC[C@H](C)[C@@H]1NC(=O)[C@H](CCCCN)NC(=O)[C@H](CCCCN)NC(=O)[C@H](Cc2ccc(O)cc2)NC(=O)[C@H](CC(C)C)NC(=O)[C@@H]2CCCN2C(=O)[C@H](C)NC(=O)CNC(=O)CNC(=O)[C@H](CO)NC(=O)CNC(=O)CNC(=O)[C@H](CO)NC(=O)[C@H](CCC(=O)O)NC(=O)[C@H](CC(C)C)NC(=O)[C@H](CC(C)C)NC(=O)[C@H](CCCCN)NC(=O)[C@H](CCCCN)NC(=O)[C@H]([C@@H](C)CC)NC(=O)[C@H]([C@@H](C)CC)NC(=O)[C@H](CCCCN)NC(=O)[C@H](CCCCN)NC(=O)[C@H](Cc2ccc(O)cc2)NC(=O)[C@H](CC(C)C)NC(=O)[C@@H]2CCCN2C(=O)[C@H](C)NC(=O)CNC(=O)[C@@H]2CSSC[C@H](NC(=O)[C@H](CC(C)C)NC(=O)[C@H](CCCCN)NC(=O)[C@H](CCCCN)NC(=O)[C@H]([C@@H](C)CC)NC1=O)C(=O)N[C@@H](CCC(=O)O)C(=O)N[C@@H](CO)C(=O)NCC(=O)N2` has a helicity of 21% (circular dichroism; aqueous NaF phosphate buffer; 50 µM, pH 7.5).
With `CC[C@H](C)[C@H](NC(=O)[C@H](CCCNC(=N)N)NC(=O)[C@@H](NC(=O)CNC(C)=O)[C@@H](C)O)C(=O)N[C@H](C(=O)N[C@@H](Cc1ccc(O)cc1)C(=O)N[C@@H](CC(=O)O)C(=O)N[C@@H](CCCNC(=N)N)C(=O)N[C@@]1(C)CCCC=CCCC[C@@](C)(C(=O)N[C@@H](CS)C(=O)N[C@@H](CCCNC(=N)N)C(=O)N[C@@H](CC(N)=O)C(N)=O)NC(=O)[C@H](CCSC)NC(=O)[C@H](CC(C)C)NC(=O)[C@H](Cc2ccccc2)NC1=O)[C@@H](C)CC` the helicity was 83% (circular dichroism; aqueous 2,2,2-trifluoroethanol; 100 µM, pH 7.4, 25 °C).
For `CC[C@H](C)[C@@H]1NC(=O)[C@H](Cc2ccccc2)NC(=O)[C@@H](NC(=O)[C@H](CCCNC(=N)N)NC(=O)[C@H](Cc2ccccc2)NC(=O)[C@H](Cc2ccccc2)NC(=O)[C@H](CCCCN)NC(=O)[C@H](CO)NC(=O)[C@H](CC(C)C)NC(=O)[C@H](CCCNC(=N)N)NC(=O)[C@H](CCSC)NC(=O)[C@H](C)N)CCNC(=O)NCC[C@@H](C(=O)N[C@@H](CCCNC(=N)N)C(=O)N[C@@H](CCCCN)C(=O)N[C@@H](CCCCN)C(=O)O)NC(=O)[C@H](CC(C)C)NC1=O`, the helicity was 7.7% (circular dichroism; 20% TFE in PBS; 200 µM, pH 7.4, 25 °C).
`CC(=O)N[C@@H](CCCCN)C(=O)N[C@@H](CCCCN)C(=O)N[C@@H](CCCNC(=N)N)C(=O)N[C@@H](Cc1ccc(O)cc1)C(=O)N[C@@H](CO)C(=O)N[C@@H](CCCNC(=N)N)C(=O)N[C@@H](CCC(=O)O)C(=O)N[C@@]1(C)CCCC=CCCC[C@@](C)(C(N)=O)NC(=O)CNC(=O)[C@H](CC(C)C)NC(=O)[C@H](CC(C)C)NC1=O` has a helicity of 18% (circular dichroism; solution).
`CC[C@H](C)[C@@H]1NC(=O)[C@H](CCCCN)NC(=O)[C@H](CCCCN)NC(=O)[C@H](Cc2ccc(O)cc2)NC(=O)[C@H](CC(C)C)NC(=O)[C@@H]2CCCN2C(=O)[C@H](C)NC(=O)CNC(=O)CNC(=O)[C@H](CO)NC(=O)CNC(=O)CNC(=O)[C@H](CO)NC(=O)[C@H](CCC(=O)O)NC(=O)[C@H](CC(C)C)NC(=O)[C@H](CC(C)C)NC(=O)[C@H](CCCCN)NC(=O)[C@H](CCCCN)NC(=O)[C@H]([C@@H](C)CC)NC(=O)[C@H]([C@@H](C)CC)NC(=O)[C@H](CCCCN)NC(=O)[C@H](CCCCN)NC(=O)[C@H](Cc2ccc(O)cc2)NC(=O)[C@H](CC(C)C)NC(=O)[C@@H]2CCCN2C(=O)[C@H](C)NC(=O)CNC(=O)[C@@H]2CSSC[C@H](NC(=O)[C@H](CC(C)C)NC(=O)[C@H](CCCCN)NC(=O)[C@H](CCCCN)NC(=O)[C@H]([C@@H](C)CC)NC1=O)C(=O)N[C@@H](CCC(N)=O)C(=O)N[C@@H](CC(N)=O)C(=O)NCC(=O)N2` has a helicity of 23% (circular dichroism; aqueous NaF phosphate buffer; 50 µM, pH 7.5).
For `CC[C@H](C)[C@H](NC(=O)CNC(=O)[C@H](Cc1c[nH]cn1)NC(=O)[C@@H](NC(=O)[C@@H](NC(=O)[C@H](CO)NC(=O)CNC(=O)[C@@H](NC(=O)[C@H](Cc1ccccc1)NC(=O)[C@H](CCCNC(=N)N)NC(=O)[C@H](CC(C)C)NC(=O)[C@@H](N)Cc1ccccc1)[C@@H](C)CC)C(C)C)[C@@H](C)CC)C(=O)NCC(=O)N[C@@H](Cc1c[nH]cn1)C(=O)N[C@@H](CC(C)C)C(=O)N[C@H](C(=O)N[C@@H](Cc1c[nH]cn1)C(=O)N[C@@H](Cc1c[nH]cn1)C(=O)N[C@H](C(=O)NCC(=O)N[C@H](C(=O)N[C@@H](C)C(=O)N[C@@H](CC(C)C)C(N)=O)C(C)C)[C@@H](C)CC)C(C)C`, the helicity was 39.8% (CD spectroscopy; 50% TFE; 50 µM).
With `CC[C@H](C)[C@@H]1NC(=O)[C@H](CCCCN)NC(=O)[C@H](CCCCN)NC(=O)[C@H](Cc2ccc(O)cc2)NC(=O)[C@H](CC(C)C)NC(=O)[C@@H]2CCCN2C(=O)[C@H](C)NC(=O)CNC(=O)CNC(=O)[C@H](CO)NC(=O)CNC(=O)CNC(=O)[C@H](CO)NC(=O)[C@H](CCC(=O)O)NC(=O)[C@H](CC(C)C)NC(=O)[C@H](CC(C)C)NC(=O)[C@H](CCCNC(=N)N)NC(=O)[C@H](CCCCN)NC(=O)[C@H]([C@@H](C)CC)NC(=O)[C@H]([C@@H](C)CC)NC(=O)[C@H](CCCCN)NC(=O)[C@H](CCCCN)NC(=O)[C@H](Cc2ccc(O)cc2)NC(=O)[C@H](CC(C)C)NC(=O)[C@@H]2CCCN2C(=O)[C@H](C)NC(=O)CNC(=O)CNC(=O)[C@H](CO)NC(=O)CNC(=O)CNC(=O)[C@H](CO)NC(=O)[C@H](CCC(=O)O)NC(=O)[C@H](CC(C)C)NC(=O)[C@H](CC(C)C)NC(=O)[C@H](CCCNC(=N)N)NC(=O)[C@H](CCCCN)NC(=O)[C@H]([C@@H](C)CC)NC1=O` the helicity was 21% (circular dichroism; aqueous NaF phosphate buffer; 50 µM, pH 7.5).
With `CC[C@H](C)[C@H](NC(=O)[C@H](Cc1ccccc1)NC(=O)[C@H](CN)NC(=O)[C@H](CCCNC(=N)N)NC(=O)[C@H](Cc1ccccc1)NC(=O)[C@H](Cc1ccccc1)NC(=O)[C@H](CCCCN)NC(=O)[C@H](CO)NC(=O)[C@H](CC(C)C)NC(=O)[C@H](CCCNC(=N)N)NC(=O)[C@H](CCSC)NC(=O)[C@H](C)N)C(=O)N[C@@H](CC(C)C)C(=O)N[C@@H](CCCCN)C(=O)N[C@@H](CCCNC(=N)N)C(=O)N[C@@H](CCCCN)C(=O)N[C@@H](CCCCN)C(=O)O` the helicity was 14.3% (circular dichroism; 20% TFE in PBS; 200 µM, pH 7.4, 25 °C).
`CC[C@H](C)[C@H](NC(=O)[C@H](CCCNC(=N)N)NC(=O)[C@H](CC(N)=O)NC(=O)[C@H](CCC(=O)O)NC(=O)[C@@H]1CCCN1C(=O)[C@H](CC(=O)O)NC(=O)[C@H](CC(N)=O)NC(=O)[C@H](CC(=O)O)NC(=O)[C@H](CC(=O)O)NC(=O)[C@@H](N)CO)C(=O)N[C@@H](C)C(=O)N[C@@H](CCCCN)C(=O)N[C@@H](CCCCN)C(=O)N[C@@]1(C)CCCC=CCCCCCC[C@](C)(C(=O)N[C@@H](CC(N)=O)C(=O)N[C@@H](CC(C)C)C(=O)N[C@@H](CO)C(=O)O)NC(=O)[C@H](CCCCN)NC(=O)[C@H]([C@@H](C)CC)NC(=O)[C@H](CCC(=O)O)NC(=O)[C@H](CCC(=O)O)NC(=O)[C@H](CC(C)C)NC(=O)[C@H](CC(C)C)NC1=O` gave a helicity of 23.4% (circular dichroism; sodium phosphate, NaF; pH 7.5, 25 °C, isolated peptide).
For `CC[C@H](C)[C@@H]1NC(=O)[C@H](Cc2ccccc2)NC(=O)[C@@H](NC(=O)[C@H](CCCNC(=N)N)NC(=O)[C@H](Cc2ccccc2)NC(=O)[C@H](Cc2ccccc2)NC(=O)[C@H](CCCCN)NC(=O)[C@H](CO)NC(=O)[C@H](CC(C)C)NC(=O)[C@H](CCCNC(=N)N)NC(=O)[C@H](CCSC)NC(=O)[C@H](C)N)CCNC(=O)NCCC[C@@H](C(=O)N[C@@H](CCCNC(=N)N)C(=O)N[C@@H](CCCCN)C(=O)N[C@@H](CCCCN)C(=O)O)NC(=O)[C@H](CC(C)C)NC1=O`, the helicity was 4% (circular dichroism; 20% TFE in PBS; 200 µM, pH 7.4, 25 °C).
`CC(=O)N[C@@H](CC(C)C)C(=O)N[C@H](C(=O)N[C@@H](Cc1ccccc1)C(=O)N[C@]1(C)CCCCCCC=CCCC[C@@](C)(C(=O)N[C@@H](CO)C(=O)N[C@@H](C)C(=O)N[C@@H](C)C(N)=O)NC(=O)[C@H](CC2CCC2)NC(=O)[C@H](CCC(N)=O)NC(=O)[C@H](C)NC(=O)[C@H](Cc2c[nH]c3ccccc23)NC(=O)[C@H](Cc2ccc(O)cc2)NC(=O)[C@H](CCC(=O)O)NC1=O)[C@@H](C)O` has a helicity of 49.6% (circular dichroism; solution; 25 °C).
With `CC[C@H](C)[C@@H]1NC(=O)[C@H](CCCCN)NC(=O)[C@H](CCCCN)NC(=O)[C@H](Cc2ccc(O)cc2)NC(=O)[C@H](CC(C)C)NC(=O)[C@@H]2CCCN2C(=O)[C@H](C)NC(=O)CNC(=O)CNC(=O)[C@H](CO)NC(=O)CNC(=O)CNC(=O)[C@H](CO)NC(=O)[C@H](CCC(=O)O)NC(=O)[C@H](CC(C)C)NC(=O)[C@H](CC(C)C)NC(=O)[C@H](CCCCN)NC(=O)[C@H](CCCCN)NC(=O)[C@H]([C@@H](C)CC)NC(=O)[C@H]([C@@H](C)CC)NC(=O)[C@H](CCCCN)NC(=O)[C@H](CCCCN)NC(=O)[C@H](Cc2ccc(O)cc2)NC(=O)[C@H](CC(C)C)NC(=O)[C@@H]2CCCN2C(=O)[C@H](C)NC(=O)CNC(=O)[C@@H]2CSSC[C@H](NC(=O)[C@H](CC(C)C)NC(=O)[C@H](CCCCN)NC(=O)[C@H](CCCCN)NC(=O)[C@H]([C@@H](C)CC)NC1=O)C(=O)N[C@@H](CCC(=O)O)C(=O)N[C@@H](CC(N)=O)C(=O)NCC(=O)N2` the helicity was 15% (circular dichroism; aqueous NaF phosphate buffer; 50 µM, pH 7.5).

For quick reference, copied from above:
With `CC[C@H](C)[C@H](NC(=O)[C@H](Cc1ccccc1)NC(=O)[C@H](CC(=O)O)NC(=O)[C@H](CCCCN)NC(=O)[C@H](Cc1ccccc1)NC(=O)[C@H](Cc1ccccc1)NC(=O)[C@H](CCCCN)NC(=O)[C@H](CCCN)NC(=O)[C@H](CC(C)C)NC(=O)[C@H](CCCNC(=N)N)NC(=O)[C@H](CCSC)NC(=O)[C@H](C)N)C(=O)N[C@@H](CC(C)C)C(=O)N[C@@H](CCC(N)=O)C(=O)N[C@@H](CCCNC(=N)N)C(=O)N[C@@H](CCCCN)C(=O)N[C@@H](CCCCN)C(=O)O` the helicity was 24.9% (circular dichroism; 20% TFE in PBS; 200 µM, pH 7.4, 25 °C).
`CC(=O)N[C@@H](CCCCN)C(=O)N[C@@H](CCCCN)C(=O)N[C@@H](CCCNC(=N)N)C(=O)N[C@@H](Cc1ccc(O)cc1)C(=O)N[C@@H](CO)C(=O)N[C@@H](CCCNC(=N)N)C(=O)N[C@@]1(C)CCCC=CCCC[C@@](C)(C(=O)N[C@@H](Cc2ccccc2)C(N)=O)NC(=O)[C@H](CC(C)C)NC(=O)[C@H](CC(C)C)NC(=O)[C@H](C)NC1=O` gave a helicity of 80% (circular dichroism; solution).
